Published values of several laboratories.
Each line is one published result; not all experiments were run side by side.
Organism: Pseudomonas aeruginosa

O=C(Nc1ccc(Cl)cc1)c1cc(Cl)ccc1O
MIC (microbial growth, broth dilution; ATCC27853): > 64 µg/mL

CCc1cc(=O)c2c(OCC(O)CN3CCC(C)CC3)c3ccoc3c(OC)c2o1 (stereo not drawn)
MIC (broth microdilution; ATCC 15442; 19 h, 35 °C): > 256 µg/mL

CC(C)C[C@H](NC(=O)CNC(=O)[C@H](C)NC(=O)c1ccc(S(=O)(=O)NC[C@H]2O[C@@H](C)[C@@H](O)[C@@H](O)[C@@H]2O)cc1)C(=O)N[C@@H](C)C(=O)NC[C@@H]1CCN(c2cc3c(cc2F)c(=O)c(C(=O)O)cn3C2CC2)C1
MIC (broth microdilution; PA14, human plasma with P. aeruginosa supernatant; 50% plasma, 10% supernatant, preincubation under 10 min): 3.13 to 6.25 µM

CCn1cc(C(=O)NCCNCCO)c(=O)c2cc(OC)c(OCc3cc(F)cc(F)c3)cc21
MIC (ATCC 27853; ≥80% growth inhibition): < 0.25 µg/mL

CC(C)C[C@H](NC(=O)CNC(=O)[C@H](C)NC(=O)c1ccc(S[C@@H]2O[C@H](CO)[C@H](O)[C@H](O)[C@H]2O)cc1)C(=O)N[C@@H](C)C(=O)N[C@H]1CCN(c2cc3c(cc2F)c(=O)c(C(=O)O)cn3C2CC2)C1
MIC (broth microdilution; PA14, P. aeruginosa supernatant in PBS; 10% supernatant, 3 h preincubation): 0.195 to 0.78 µM

O=C(Nc1ccc(Br)cc1)c1cc(Cl)ccc1O
MIC (microbial growth, broth dilution; ATCC27853): > 64 µg/mL

Cc1ccc(C(C)C)cc1.Cc1ccc(C(C)C)cc1.[Cl][Ru][Cl].[Cl][Ru][Cl]
MIC (broth microdilution; ATCC 25619; 37 °C): > 1000 µg/mL

CCc1cc(=O)c2c(OCC(O)CNC(C)(C)C)c3ccoc3c(OC)c2o1 (stereo not drawn)
MIC (broth microdilution; ATCC 15442; 19 h, 35 °C): > 256 µg/mL

O=C(Nc1ccc(F)c(F)c1)c1ccccc1O
MIC (microbial growth, broth dilution; ATCC27853): > 64 µg/mL

CCc1cc(=O)c2c(OCC(O)CN(CC)CC)c3ccoc3c(OC)c2o1 (stereo not drawn)
MIC (broth microdilution; ATCC 15442; 19 h, 35 °C): > 256 µg/mL

CC(C)C[C@H](NC(=O)CNC(=O)[C@H](C)NC(=O)c1ccc(S(=O)(=O)NC[C@H]2O[C@@H](C)[C@@H](O)[C@@H](O)[C@@H]2O)cc1)C(=O)N[C@@H](C)C(=O)N[C@H]1CCN(c2cc3c(cc2F)c(=O)c(C(=O)O)cn3C2CC2)C1
MIC (broth microdilution; PA14, P. aeruginosa supernatant in PBS; 10% supernatant, 3 h preincubation): 0.39 to 3.13 µM

O=C(Nc1ccc(Br)c(C(F)(F)F)c1)c1cc(Cl)ccc1O
MIC (microbial growth, broth dilution; ATCC27853): > 64 µg/mL
